Earlier results, collected from citations in different studies.
± marks the error that the study gave. ≈ marks a conversion by molar mass, not a printed value.
Chain of UniProt O75747 (whole entry, looked up): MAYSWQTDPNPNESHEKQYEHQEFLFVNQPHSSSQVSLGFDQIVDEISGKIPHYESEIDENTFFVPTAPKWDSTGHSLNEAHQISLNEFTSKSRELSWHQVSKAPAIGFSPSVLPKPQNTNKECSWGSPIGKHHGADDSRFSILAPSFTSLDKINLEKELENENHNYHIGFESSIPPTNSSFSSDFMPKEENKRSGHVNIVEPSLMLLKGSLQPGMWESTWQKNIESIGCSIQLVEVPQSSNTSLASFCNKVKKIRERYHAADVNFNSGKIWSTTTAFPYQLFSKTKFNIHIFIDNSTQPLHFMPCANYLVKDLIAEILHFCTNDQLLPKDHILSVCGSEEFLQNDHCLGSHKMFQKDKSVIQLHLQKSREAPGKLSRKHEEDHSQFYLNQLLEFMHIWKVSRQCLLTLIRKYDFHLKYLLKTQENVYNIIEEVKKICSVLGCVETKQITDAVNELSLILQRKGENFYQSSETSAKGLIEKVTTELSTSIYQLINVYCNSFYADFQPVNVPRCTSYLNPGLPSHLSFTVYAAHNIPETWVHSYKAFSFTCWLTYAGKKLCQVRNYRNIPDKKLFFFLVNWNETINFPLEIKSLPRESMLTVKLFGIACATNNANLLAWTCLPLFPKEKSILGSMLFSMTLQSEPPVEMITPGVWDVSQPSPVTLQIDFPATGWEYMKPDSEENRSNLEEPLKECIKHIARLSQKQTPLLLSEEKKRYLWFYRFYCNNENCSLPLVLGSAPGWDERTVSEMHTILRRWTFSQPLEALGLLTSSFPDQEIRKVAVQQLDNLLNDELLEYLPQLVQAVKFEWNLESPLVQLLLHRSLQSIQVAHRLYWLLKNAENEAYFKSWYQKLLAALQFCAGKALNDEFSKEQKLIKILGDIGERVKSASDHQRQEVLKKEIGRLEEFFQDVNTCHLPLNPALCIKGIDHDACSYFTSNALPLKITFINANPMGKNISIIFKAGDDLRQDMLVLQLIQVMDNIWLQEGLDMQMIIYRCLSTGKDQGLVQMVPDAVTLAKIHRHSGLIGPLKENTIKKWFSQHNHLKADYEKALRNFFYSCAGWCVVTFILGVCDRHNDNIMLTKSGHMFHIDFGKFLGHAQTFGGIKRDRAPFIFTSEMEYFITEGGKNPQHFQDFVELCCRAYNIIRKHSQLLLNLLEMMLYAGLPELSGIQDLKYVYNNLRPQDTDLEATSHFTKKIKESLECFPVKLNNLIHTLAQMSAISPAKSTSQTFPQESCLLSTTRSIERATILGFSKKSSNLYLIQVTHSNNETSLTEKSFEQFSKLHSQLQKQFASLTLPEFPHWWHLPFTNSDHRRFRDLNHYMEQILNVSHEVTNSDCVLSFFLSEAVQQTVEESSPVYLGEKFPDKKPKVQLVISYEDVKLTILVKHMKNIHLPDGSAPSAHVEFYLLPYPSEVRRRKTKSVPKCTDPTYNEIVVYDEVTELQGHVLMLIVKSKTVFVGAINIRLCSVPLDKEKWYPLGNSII

Compound = C=CC(=O)N1CCC(C(=O)NCC(=O)N2CCN(c3nc(-c4cnc(N)nc4C(F)F)nc(N4CCOCC4)n3)CC2)CC1; tested on = PIK3C2G (Homo sapiens, UniProt O75747); assay = kinase activity; conditions = 1 µM; measurement = remaining activity; result = 16%
Compound = COc1ccccc1Oc1cccc(CN2CCC(O)(c3ccccc3C(=O)O)CC2)c1; tested on = human CCR8 Y114A mutant (TM3); assay = IP accumulation, agonist; measurement = EC50; result = 430 nM
Compound = CNC(C)C1CCC(N)C(OC2C(N)CC(N)C(OC3OCC(C)(O)C(NC)C3O)C2O)O1 (stereo not shown); tested on = Klebsiella oxytoca; test system = clinical isolate RKI 52/07; measurement = MIC; result = 2 µg/mL (≈ 4.19 µM)
Compound = C[C@@H]1CN(c2ncccc2C(F)(F)F)CCN1C(=O)Nc1ccc(C(F)(F)F)cc1; tested on = TRPV1; assay = calcium flux, antagonist; test system = HEK293; conditions = added: capsaicin; measurement = IC50; result = 17 nM
Compound = Cc1cnc(N2CC3(CCOCC3)C2)c(C(=O)Nc2ccc(C(=O)N3CCc4cc(C(=O)Nc5c(C)cccc5F)sc4-c4ccccc43)cc2)c1; tested on = respiratory syncytial virus; assay = viral load; test system = A2, air-liquid interface culture; conditions = AUC day 3-10 post infection; measurement = IC50; result = 0.0568 µg/mL
Compound = CC1(C)S[C@@H]2[C@H](NC(=O)[C@H](N)c3ccccc3)C(=O)N2[C@H]1C(=O)O; tested on = Escherichia coli; test system = clinical isolate RKI-No_583/16; measurement = MIC; result = > 16 µg/mL
Compound = COc1ccccc1Oc1cccc(CN2CCC(NC(=O)C3CC(=O)Nc4ccccc43)CC2)c1 (stereo not shown); tested on = human CCR8 K195A mutant (TM5); assay = IP accumulation, agonist; measurement = EC50; result = 62 nM
Compound = Cc1c(C#N)cccc1[C@@H](C)Nc1nnc(C)c2cnc(N3CCOCC3)cc12; tested on = PC-9; assay = ERK phosphorylation, In-Cell Western, refers to: phospho-ERK; measurement = IC50; result = 218 ± 22.4 nM
Compound = COc1ccc2c(c1)CCC(NC(=O)Nc1cccc3cnccc13)C2Cc1ccccc1 (stereo not shown); tested on = TRPV1; assay = calcium flux, antagonist; test system = HEK293; conditions = added: capsaicin; measurement = IC50; result = 25 nM
Compound = Nc1cc(C(F)(F)F)c(-c2nc(N3CCOCC3)nc(N3CCOCC3)n2)cn1; tested on = SW-620; measurement = GI50; result = 1770 nM
Compound = O=C(Nc1cccc2cnccc12)NC1CCc2cc(F)ccc2C1Cc1ccccc1 (stereo not shown); tested on = TRPV1; assay = calcium flux, antagonist; test system = HEK293; conditions = added: capsaicin; measurement = IC50; result = 12 nM
Compound = COc1ccccc1Oc1cccc(CN2CCC3(CC2)C(=O)NCN3CCc2ccccc2)c1; tested on = human CCR8 Y42A mutant (TM1); assay = IP accumulation, agonist; measurement = EC50; result = 158 nM
Compound = CC(C)c1ccc(Nc2ncnc3sc(Nc4c(Cl)cccc4Cl)nc23)cc1; tested on = TRPV1; assay = calcium flux, antagonist; test system = HEK293; conditions = added: capsaicin; measurement = IC50; result = 10 nM
Compound = COc1ccccc1Oc1cccc(CN2CCC(NC(=O)C(CCN3CCCC3)c3ccccc3)CC2)c1 (stereo not shown); tested on = human CCR8 F84A mutant (TM2); assay = IP accumulation, agonist; measurement = EC50; result = 4.8 nM
Compound = C[C@H]1COCCN1c1nc(-c2cnc(N)cc2C(F)F)nc(N2CCOCC2)n1; tested on = DU-145; measurement = GI50; result = 237 nM
Compound = CCCCCc1ccc(C(=O)Nc2cccc3cnccc23)cc1; tested on = TRPV1; assay = calcium flux, antagonist; test system = HEK293; conditions = added: capsaicin; measurement = IC50; result = 2.4 nM

A few entries again:
Compound = COc1ccccc1Oc1cccc(CN2CCC3(CC2)C(=O)NCN3CCc2ccccc2)c1; tested on = human CCR8 Y42A mutant (TM1); assay = IP accumulation, agonist; measurement = EC50; result = 158 nM
Compound = Nc1cc(C(F)(F)F)c(-c2nc(N3CCOCC3)nc(N3CCOCC3)n2)cn1; tested on = SW-620; measurement = GI50; result = 1770 nM
